Assay results of several laboratories.
Lines come from different studies, so protocols differ. Numbers after ± are the reported error.
WDR5: WD repeat-containing protein 5 (WDR5, Homo sapiens, UniProt P61964)
OPRK1: Kappa-type opioid receptor (OPRK1, Cavia porcellus, UniProt P41144)
CA1: Carbonic anhydrase 1 (CA1, Homo sapiens, UniProt P00915)
Oprd1: Delta-type opioid receptor (Oprd1, Rattus norvegicus, UniProt P33533)
DRD2 long isoform: D(2) dopamine receptor, long isoform (DRD2, Homo sapiens, UniProt P14416)
CNR1: Cannabinoid receptor 1 (CNR1, Homo sapiens, UniProt P21554)

COc1ccccc1N1CCN(CCCCN2CCCc3ccccc3C2=O)CC1  Ki (DRD2 (Homo sapiens, UniProt P14416); ligand displacement, radioligand): 9.3 nM
CC[C@@H]1NC(=O)[C@H](CCCNC(=N)N)NC(=O)[C@H](NC(=O)C(C)C)CCCCNC(=O)c2cc(F)c(c(F)c2)N=Nc2c(F)cc(cc2F)C(=O)NCCNC(=O)[C@@H](Cc2ccccc2)NC1=O  Ki (WDR5; binding, inhibitor, competitive fluorescence polarization; cis isomer, 520 nm photostationary state): 137 nM
O=C1NC(=O)c2c1c1cc(F)c[n+]3c1c1c2c2cc(O)ccc2[n]1[Ru-4]312([N]=C=S)[S+]3CC[S+]1CC[S+]2CC3 (stereo not drawn)  remaining activity (ABL2 (Homo sapiens, UniProt P42684); enzyme activity; 100 nM, human enzyme, with: 10 µM ATP; baseline: untreated): 93%
O=C1NC2(CC2)COc2ncc(F)cc2[C@H]2COCCN2c2ccn3ncc1c3n2  pancreatic amylase activity (Sprague-Dawley rat, female, serum; oral, 20 mg/kg/day, 4 weeks daily, end of recovery period): 1450 ± 213 U/L
C[C@@H](Cc1ccsc1)NC(=O)NC[C@H](Cc1ccc(O)cc1)N(C)C  Ki (HCRTR2 (Homo sapiens, UniProt O43614)): > 50000 nM
COc1cc2c(cc1O)C(CCc1ccc(Cl)cc1)N(C)CC2 (stereo not drawn)  Ki (SLC6A4 (Homo sapiens, UniProt P31645); cell-free assay, radioligand): 1000 nM
Cc1cc(O)cc(C)c1C[C@H](N)C(=O)N[C@H](CCCNC(=N)N)C(=O)N[C@@H](Cc1ccccc1)C(=O)N[C@@H](CCCCNC(=O)CN1CCN(CC(=O)O)CCN(CC(=O)O)CCN(CC(=O)O)CC1)C(N)=O  Ki (OPRK1; ligand displacement, radioligand; cell membranes): 146 nM
N[C@H]1CCSC1=O  Ki (CA1; enzyme activity, inhibitor, stopped-flow): > 100000 nM
Cc1cc(O)cc(C)c1C[C@H](N)C(=O)N[C@H](CCCNC(=N)N)C(=O)N[C@@H](Cc1ccccc1)C(=O)N[C@@H](CCCCN)C(=O)NCCCCCC(=O)N[C@@H](CCCCNC(=O)CN1CCN(CC(=O)O)CCN(CC(=O)O)CCN(CC(=O)O)CC1)C(N)=O  Ki (OPRK1; guinea pig): 66.1 ± 5.4 nM
Cc1cc(O)cc(C)c1C[C@H](N)C(=O)N[C@H](CCCNC(=N)N)C(=O)N[C@@H](Cc1ccccc1)C(=O)N(C)CC(=O)N(C)Cc1cc(C(F)(F)F)cc(C(F)(F)F)c1  Ki (OPRD1 (Homo sapiens, UniProt P41143, V281A)): 106 nM
CC(C)[C@H]1NC(=O)C[C@H]2/C=C/CCSSC[C@@H](NC1=O)C(=O)N[C@H](Cc1cccc3ccccc13)C(=O)NCC(=O)O2  inhibition (PRKCA (Homo sapiens, UniProt P17252); enzyme activity, inhibitor; 10 µM): 1%
NC(=O)[C@@H]1CC/C=C\C[C@@H](NC(=O)[C@@H](N)Cc2ccc(O)cc2)C(=O)N[C@@H](Cc2ccccc2)C(=O)N[C@@H](Cc2ccccc2)C(=O)N1  Ki (OPRK1; ligand displacement, radioligand; cell membranes): 9.36 nM
Cc1cc(O)cc(C)c1C[C@H](N)C(=O)N[C@H](CCCNC(=N)N)C(=O)N[C@@H](Cc1ccccc1)C(=O)N[C@@H](CCCCN)C(=O)NCCCCCCNC(=O)[C@H](Cc1ccccc1)NC(=O)[C@H](CC1CCCCC1)NC[C@@H]1Cc2ccccc2CN1C(=O)[C@@H](N)Cc1ccc(O)cc1  Ki (Oprd1; ligand displacement, radioligand; cell membranes): 3.5 nM
CN1CCN(c2cccc3c2ccn3C(=O)c2ccccc2)CC1  Ki (DRD2 long isoform; binding, radioligand displacement; HEK293 membranes; 1 h, 37 °C, with: [3H]-raclopride): 88 ± 11 nM
COc1ccccc1-c1n[nH]c2nc(N[C@H]3CC[C@H](NS(=O)(=O)CC(C)C)CC3)ncc12  relative abundance (bead binding, competition bead pull-down, item: LINJ.25.1160; Leishmania donovani extract; 10 µM; baseline: vehicle): 0.68
CCCCCn1ccc(C(=O)NC(C)(C)c2ccc(NC(C)=O)cc2)n1  Ki (CNR1; ligand displacement, radioligand): 1340 nM
CN1CCN(c2cn(Cc3ccccc3)c3ccccc23)CC1  Ki (DRD2 long isoform; binding, radioligand displacement; HEK293 membranes; 1 h, 37 °C, with: [3H]-raclopride): 35 ± 4 nM
CC[C@@H]1NC(=O)[C@H](CCCNC(=N)N)NC(=O)[C@@H](C)NC(=O)c2cc(F)c(c(F)c2)N=Nc2c(F)cc(cc2F)C(=O)NCCNC(=O)[C@@H](Cc2ccccc2)NC1=O  Ki (WDR5; binding, inhibitor, competitive fluorescence polarization; trans isomer, 405 nm photostationary state): 3350 nM
Cc1cc(O)cc(C)c1C[C@H](N)C(=O)N[C@H](CCCNC(=N)N)C(=O)N[C@@H](Cc1ccccc1)C(=O)N[C@@H](CCCCN)C(=O)NNC(=O)[C@H](Cc1ccccc1)NC(=O)[C@H](CC1CCCCC1)NC[C@@H]1Cc2ccccc2CN1C(=O)[C@@H](N)Cc1ccc(O)cc1  Ki (Oprd1; ligand displacement, radioligand; cell membranes): 2.28 nM
CC[C@@H]1NC(=O)[C@H](CCCNC(=N)N)NC(=O)[C@H](NC(=O)C(C)C)CNC(=O)c2cc(F)c(c(F)c2)N=Nc2c(F)cc(cc2F)C(=O)NCCNC(=O)[C@@H](c2ccccc2)NC1=O  Ki (WDR5; binding, inhibitor, competitive fluorescence polarization; trans isomer, 405 nm photostationary state): 43 nM
NC(=O)[C@@H]1CCCCC[C@@H](NC(=O)[C@@H](N)Cc2ccc(O)cc2)C(=O)N[C@@H](Cc2ccccc2)C(=O)N[C@@H](Cc2ccccc2)C(=O)N1  Ki (OPRK1; ligand displacement, radioligand; cell membranes): 11.3 nM
CC[C@@H]1NC(=O)[C@H](CCCNC(=N)N)NC(=O)[C@H](NC(=O)C(C)C)CCCCNC(=O)c2cc(F)c(c(F)c2)N=Nc2c(F)cc(cc2F)C(=O)NCCNC(=O)[C@@H](c2ccccc2)NC1=O  Ki (WDR5; binding, inhibitor, competitive fluorescence polarization; cis isomer, 520 nm photostationary state): 239 nM
Cc1cc(O)cc(C)c1C[C@H](N)C(=O)N[C@H](CCCNC(=N)N)C(=O)N[C@@H](Cc1ccccc1)C(=O)N[C@@H](CCCCN)C(=O)NCCCCCCCCNC(=O)[C@H](Cc1ccccc1)NC(=O)[C@H](CC1CCCCC1)NC[C@@H]1Cc2ccccc2CN1C(=O)[C@@H](N)Cc1ccc(O)cc1  Ki (Oprd1; ligand displacement, radioligand; cell membranes): 7.32 nM
CC(C)(C)C(=O)OCOP(=O)(OCOC(=O)C(C)(C)C)C1CCCN(O)C1=O (stereo not drawn)  Log10TGI (CCRF-CEM): -5.64 log M
COc1ccccc1-c1n[nH]c2nc(NC3CCN(C(=O)Cc4ccc(F)cc4F)CC3)ncc12  relative abundance (bead binding, competition bead pull-down, item: LMJF.32.3310; Leishmania donovani axenic amastigote extract; 10 µM; baseline: vehicle): 0.85
CC[C@@H]1NC(=O)[C@H](CCCNC(=N)N)NC(=O)[C@H](NC(=O)C(C)C)CCNC(=O)c2cc(F)c(c(F)c2)N=Nc2c(F)cc(cc2F)C(=O)NCCNC(=O)[C@@H](c2ccccc2)NC1=O  Ki (WDR5; binding, inhibitor, competitive fluorescence polarization; trans isomer, 405 nm photostationary state): 51 nM
CCOC(=O)C(CC)(CC)NC(=O)c1ccc(C2CC2)c(Cc2ccc(F)cc2)n1  Ki (CNR1; ligand displacement, radioligand; cell membranes): 5.4 nM
Cc1cc(O)cc(C)c1C[C@H](N)C(=O)N[C@@H]1C/C=C\CC[C@@H](C(N)=O)NC(=O)[C@H](Cc2ccccc2)NC(=O)[C@H](Cc2ccccc2)NC1=O  Ki (OPRK1; ligand displacement, radioligand; cell membranes): 12.8 nM
CN(C)[C@H]1C[C@@]23CC[C@@]4(O2)C(=CC[C@]2(C)[C@@H](c5ccc6ccncc6c5)CC[C@H]24)C=C3[C@@H](O)[C@@H]1O  inhibition (MAP2K6 (Homo sapiens, UniProt P52564); ATP probe labelling, inhibitor, KiNativ profiling; 1 µM): 6.7%
COc1c(C(C)C)cc2c(c1O)[C@@]1(C(=O)O)CCCC(C)(C)C1CC2 (stereo partly drawn)  Ki (ACHE (Homo sapiens, UniProt P22303); enzyme activity, inhibitor): 3.57 nM
O=C1c2ccccc2CCCN1CCCCN1CCN(c2cccc(Cl)c2Cl)CC1  Ki (HTR1D (Homo sapiens, UniProt P28221); ligand displacement, radioligand): > 10000 nM
N=C(N)NCCC[C@H]1NC(=O)[C@@H](Cc2ccc(O)cc2)NC(=O)[C@H](CCCCN)NC(=O)[C@H](Cc2ccccc2)NC1=O  Ki (OPRK1; ligand displacement, radioligand; cell membranes): > 10000 nM
COC1c2cc(C(C)C)c(O)c(O)c2C23CCCC(C)(C)C2C1OC3=O (stereo not drawn)  Ki (Cholinesterase (BCHE, Homo sapiens, UniProt P06276); enzyme activity, inhibitor, absorbance): 2.3 nM
Cc1cc(O)cc(C)c1CCC(=O)N[C@@H]1C/C=C/CC[C@@H](C(N)=O)NC(=O)[C@H](Cc2ccccc2)NC(=O)[C@H](Cc2ccccc2)NC1=O  Ki (Oprd1; ligand displacement, radioligand; cell membranes): 27 nM
O=S(=O)(N/N=C/c1ccc(OS(=O)(=O)c2ccc(Br)cc2)cc1)c1cc(Cl)ccc1Cl  Ki (CA1; enzyme activity, inhibitor, absorbance): 342 nM
CC[C@H](C)[C@H](NC(=O)[C@H](CO)NC(=O)[C@H](Cc1ccc(O)cc1)NC(=O)[C@H](Cc1ccc(O)cc1)NC(=O)[C@H](CC(N)=O)NC(=O)CNC(=O)[C@H](CO)NC(=O)[C@H](Cc1ccc(O)cc1)NC(=O)[C@H](CO)NC(=O)[C@H](CO)NC(=O)[C@H](CC(N)=O)NC(=O)COCCOCCNC(=O)CN1CCN(CC(=O)O)CCN(CC(=O)O)CCN(CC(=O)O)CC1)C(=O)N[C@@H](CC(C)C)C(N)=O [copper-64 labelled]  tissue uptake (dynamic PET; KPC mouse Ptf1a-CreER tdTomato, metastases; intravenous, dose not given, 1.6 min, 84 d after tamoxifen): 13.8 %ID/mL
Cc1ccc(S(=O)(=O)Oc2ccc(/C=N/NS(=O)(=O)c3ccc(Cl)cc3)cc2)cc1  Ki (CA1; enzyme activity, inhibitor, absorbance): 11.6 nM
Cc1cc(O)cc(C)c1C[C@H](N)C(=O)N[C@@H]1CCCCC[C@@H](C(N)=O)NC(=O)[C@H](Cc2ccccc2)NC(=O)[C@H](Cc2ccccc2)NC1=O  Ki (Oprd1; ligand displacement, radioligand; cell membranes): 1.2 nM
O=S(=O)(N/N=C/c1ccc(OS(=O)(=O)c2cc(Cl)ccc2Cl)cc1)c1ccc(Cl)cc1  Ki (CA1; enzyme activity, inhibitor, absorbance): 179 nM
CN(C)[C@H](CNC(=O)/C=C/c1cccc2ccccc12)Cc1ccc(O)cc1  Ki (DRD3 (Homo sapiens, UniProt P35462); cell-free assay): 6000 nM
COc1ccc(S(=O)(=O)Oc2ccc(/C=N/NS(=O)(=O)c3cc(Cl)ccc3Cl)cc2)cc1  Ki (CA1; enzyme activity, inhibitor, absorbance): 11.5 nM
CC[C@@H]1NC(=O)[C@H](CCCNC(=N)N)NC(=O)[C@H](NC(=O)C(C)C)CCNC(=O)c2cc(F)c(c(F)c2)N=Nc2c(F)cc(cc2F)C(=O)NCCNC(=O)[C@@H](Cc2ccccc2)NC1=O  Ki (WDR5; fluorescence polarization competition; trans PSS, irradiated 520 nm with WDR5 in situ): 6.53 ± 2.48 nM

For quick reference, copied from above:
O=C1NC2(CC2)COc2ncc(F)cc2[C@H]2COCCN2c2ccn3ncc1c3n2  pancreatic amylase activity (Sprague-Dawley rat, female, serum; oral, 20 mg/kg/day, 4 weeks daily, end of recovery period): 1450 ± 213 U/L
C[C@@H](Cc1ccsc1)NC(=O)NC[C@H](Cc1ccc(O)cc1)N(C)C  Ki (HCRTR2 (Homo sapiens, UniProt O43614)): > 50000 nM
COc1cc2c(cc1O)C(CCc1ccc(Cl)cc1)N(C)CC2 (stereo not drawn)  Ki (SLC6A4 (Homo sapiens, UniProt P31645); cell-free assay, radioligand): 1000 nM
Cc1cc(O)cc(C)c1C[C@H](N)C(=O)N[C@H](CCCNC(=N)N)C(=O)N[C@@H](Cc1ccccc1)C(=O)N[C@@H](CCCCNC(=O)CN1CCN(CC(=O)O)CCN(CC(=O)O)CCN(CC(=O)O)CC1)C(N)=O  Ki (OPRK1; ligand displacement, radioligand; cell membranes): 146 nM
N[C@H]1CCSC1=O  Ki (CA1; enzyme activity, inhibitor, stopped-flow): > 100000 nM
